{"data": "Measurements from different studies", "cell line": "Caco-2", "note": "Lines come from different studies, so protocols differ."}
{"Compound": "COC(=O)C1CN1S(=O)(=O)c1c(C)cc(C)cc1C (centres unmarked)", "effect on": "cell growth or viability", "method": "MTT", "time": "48 h", "IC50 [µM]": 10}
{"Compound": "CC1(C)OC2C(COP(=O)(O)O)OC(n3cnc4c(=O)[nH]c(NC(=O)c5ccccc5)nc43)C2O1 (centres unmarked)", "effect on": "cell growth or viability", "IC50 [µM]": "> 100"}
{"Compound": "CCCCc1ccc(S(=O)(=O)N2CC2C(=O)OC)cc1 (centres unmarked)", "effect on": "cell growth or viability", "method": "MTT", "time": "48 h", "IC50 [µM]": 202}
{"Compound": "F[P-](F)(F)(F)(F)F.OCP(CO)CO.OCP(CO)CO.OCP(CO)CO.OCP(CO)CO.[Cu+]", "effect on": "cell growth or viability", "method": "MTT", "time": "72 h", "IC50 [µM]": 0.48}
{"Compound": "N=C(N)NCCC[C@H](NC(=O)[C@H](Cc1c[nH]c2ccccc12)NC(=O)[C@H](CCC(N)=O)NC(=O)[C@H](Cc1c[nH]c2ccccc12)NC(=O)[C@H](CCCN)NC(=O)[C@H](Cc1c[nH]c2ccccc12)NC(=O)[C@H](CCC(N)=O)NC(=O)[C@H](Cc1c[nH]c2ccccc12)NC(=O)[C@@H](N)CCCNC(=N)N)C(N)=O", "effect on": "cell growth or viability", "method": "MTT", "IC50 [µM]": 64}
{"Compound": "CC(C)C[C@H](NC(=O)[C@H](C)NC(=O)[C@H](C)NC(=O)[C@H](CCC(N)=O)NC(=O)[C@H](C)NC(=O)[C@H](CO)NC(=O)[C@H](CC(C)C)NC(=O)[C@H](C)NC(=O)[C@@H](NC(=O)[C@H](C)NC(=O)[C@H](Cc1ccc(O)cc1)NC(=O)[C@H](CO)NC(=O)[C@H](CCCCN)NC(=O)[C@H](C)NC(=O)[C@H](Cc1ccccc1)NC(=O)[C@H](CCCCN)NC(=O)[C@H](C)NC(=O)[C@H](Cc1ccccc1)NC(=O)[C@H](CCCCN)NC(=O)[C@H](CCCCN)NC(=O)[C@H](C)NC(=O)[C@H](Cc1ccccc1)NC(=O)[C@H](CCCCN)NC(=O)[C@H](C)NC(=O)[C@H](Cc1ccccc1)NC(=O)[C@H](CCCCN)NC(=O)[C@H](CCCCN)NC(=O)[C@H](C)NC(=O)[C@H](Cc1ccccc1)NC(=O)[C@H](CCCCN)NC(=O)[C@H](C)NC(=O)[C@H](Cc1ccccc1)NC(=O)[C@@H](N)CCCCN)C(C)C)C(=O)N[C@@H](C)C(=O)N[C@@H](CCCNC(=N)N)C(=O)N[C@@H](CCCNC(=N)N)C(=O)O", "effect on": "viable cell number", "method": "MTS", "time": "6 h", "IC50 [µM]": 52.2}
{"Compound": "O=C(Nc1nc2c(ncn2C2OC(COP(=O)(O)O)C(O)C2O)c(=O)[nH]1)c1ccccc1 (centres unmarked)", "effect on": "cell growth or viability", "IC50 [µM]": "> 100"}
{"Compound": "N=C(N)NCCC[C@H](NC(=O)[C@H](Cc1c[nH]c2ccccc12)NC(=O)[C@H](CCC(N)=O)NC(=O)[C@H](Cc1c[nH]c2ccccc12)NC(=O)[C@H](CCCNC(=N)N)NC(=O)[C@H](Cc1c[nH]c2ccccc12)NC(=O)[C@H](CCC(N)=O)NC(=O)[C@H](Cc1c[nH]c2ccccc12)NC(=O)[C@H](CCCNC(=N)N)NC(=O)CCCCCNC(=O)CCCC[C@@H]1SC[C@@H]2NC(=O)N[C@@H]21)C(N)=O", "effect on": "cell growth or viability", "method": "MTT", "IC50 [µM]": "> 110"}
{"note": "For quick reference, copied from above:"}
{"Compound": "CC(C)C[C@H](NC(=O)[C@H](C)NC(=O)[C@H](C)NC(=O)[C@H](CCC(N)=O)NC(=O)[C@H](C)NC(=O)[C@H](CO)NC(=O)[C@H](CC(C)C)NC(=O)[C@H](C)NC(=O)[C@@H](NC(=O)[C@H](C)NC(=O)[C@H](Cc1ccc(O)cc1)NC(=O)[C@H](CO)NC(=O)[C@H](CCCCN)NC(=O)[C@H](C)NC(=O)[C@H](Cc1ccccc1)NC(=O)[C@H](CCCCN)NC(=O)[C@H](C)NC(=O)[C@H](Cc1ccccc1)NC(=O)[C@H](CCCCN)NC(=O)[C@H](CCCCN)NC(=O)[C@H](C)NC(=O)[C@H](Cc1ccccc1)NC(=O)[C@H](CCCCN)NC(=O)[C@H](C)NC(=O)[C@H](Cc1ccccc1)NC(=O)[C@H](CCCCN)NC(=O)[C@H](CCCCN)NC(=O)[C@H](C)NC(=O)[C@H](Cc1ccccc1)NC(=O)[C@H](CCCCN)NC(=O)[C@H](C)NC(=O)[C@H](Cc1ccccc1)NC(=O)[C@@H](N)CCCCN)C(C)C)C(=O)N[C@@H](C)C(=O)N[C@@H](CCCNC(=N)N)C(=O)N[C@@H](CCCNC(=N)N)C(=O)O", "effect on": "viable cell number", "method": "MTS", "time": "6 h", "IC50 [µM]": 52.2}
